Measured values collected from several papers.
Each line is one published result; not all experiments were run side by side. “And” joins repeats or separate records; there may be more than shown. Numbers after ± are the reported error.
Cell line: SK-MEL-28

[Cl-].[Cl-].[Ru+2].c1cnc2c(c1)ccc1cccnc12.c1cnc2c(c1)ccc1cccnc12.c1csc(-c2ccc(-c3nc4c5cccnc5c5ncccc5c4[nH]3)s2)c1
EC50 (cell viability, resazurin; normoxia, with: 523 nm light 100 J cm^-2): ~0.5 µM

[Cl-].[Cl-].[Ru+2].c1ccc(-c2ccccn2)nc1.c1ccc(-c2ccccn2)nc1.c1ccc2cc3nc4c5cccnc5c5ncccc5c4nc3cc2c1
phototherapeutic index (visible light, oxygen 18.5%; reference: dark EC50 over light EC50): 1630

Cc1cccc(-c2cccc(C)n2)n1.Cc1cccc(-c2cccc(C)n2)n1.F[P-](F)(F)(F)(F)F.F[P-](F)(F)(F)(F)F.[Ru+2].c1ccc(-c2nc3c4cccnc4c4ncccc4c3[nH]2)cc1
EC50 (cell growth or viability, resazurin; dark): 101 µM

CC(C)c1ccc(N(C)c2ccc3c(c2)OCC[C@H]3CNc2cnccc2C(=O)O)cc1
IC50 (cell growth or viability, ATP luminescence; 7 days): 0.00556 µM

CC(C)=CC1OC(C)(C)C2C=C3C(=O)C(Cl)=CC(O)C3C3C(O)C4OC4C(=O)C132 (centres unmarked)
IC50 (cell growth or viability, MTS): 0.9 µM

Cc1cccc(-c2cccc(C)n2)n1.Cc1cccc(-c2cccc(C)n2)n1.F[P-](F)(F)(F)(F)F.F[P-](F)(F)(F)(F)F.[Ru+2].c1cc2ccc3ccc(-c4nc5c6cccnc6c6ncccc6c5[nH]4)c4ccc(c1)c2c34
EC50 (cell viability; dark, 1% O2): 59.7 ± 0.5 µM

Cc1ccnc(-c2cc(C)ccn2)c1.Cc1ccnc(-c2cc(C)ccn2)c1.F[P-](F)(F)(F)(F)F.[Ru+2].[c-]1cccc2c1c1ncccc1c1[nH]c(-c3ccc(-c4ccc(-c5cccs5)s4)s3)nc21
EC50 (cell growth or viability, resazurin; dark): 5 µM and 5.1 µM and 5.11 µM

CCCC(CCC)C(=O)OCc1cn(-c2cc3ccccc3oc2=O)nn1
growth percentage (NCI60 single-dose screen; 10 µM): 100%

Cc1ccnc(-c2cc(C)ccn2)c1.Cc1ccnc(-c2cc(C)ccn2)c1.F[P-](F)(F)(F)(F)F.[Ru+2].[c-]1cccc2c1c1ncccc1c1[nH]c(-c3ccc(-c4cccs4)s3)nc21
EC50 (cell growth or viability, resazurin; dark): 0.38 µM

[Cl-].[Cl-].[Ru+2].c1ccc(-c2ccccn2)nc1.c1ccc(-c2ccccn2)nc1.c1ccc2cc3nc4c5cccnc5c5ncccc5c4nc3cc2c1
GI50 (cell growth, SRB; dark, 1% O2 hypoxia): 37.9 µM

Cc1cccc(-c2cccc(C)n2)n1.Cc1cccc(-c2cccc(C)n2)n1.F[P-](F)(F)(F)(F)F.F[P-](F)(F)(F)(F)F.[Ru+2].c1ccc2c(-c3nc4c5cccnc5c5ncccc5c4[nH]3)c3ccccc3cc2c1
phototoxicity index (normoxia, with: green light 523 nm, 100 J/cm2; reference: dark over light EC50): 28

CC(C)(C)c1cc(-c2ccc3cccnc3n2)nc(-c2ccc3cccnc3n2)c1.COc1ccncc1.[Cl-].[Cl-].[Ru+2].c1ccc2cc3nc4c5cccnc5c5ncccc5c4nc3cc2c1
EC50 (cell viability; dark, normoxia 18.5 % oxygen): 103 ± 3 µM

Cc1cccc(-c2cccc(C)n2)n1.Cc1cccc(-c2cccc(C)n2)n1.F[P-](F)(F)(F)(F)F.F[P-](F)(F)(F)(F)F.[Ru+2].c1ccc2c(c1)Cc1cc(-c3nc4c5cccnc5c5ncccc5c4[nH]3)ccc1-2
EC50 (cell viability; normoxia, with: green light 523 nm, 100 J/cm2): 20.8 ± 0.5 µM

CCN(C(=O)c1cc(F)ccc1Oc1nncnc1N1CCC2(C1)CN([C@H](CCCN(C)CCOC)C(C)C)C2)C(C)C
GI50 (cell growth or viability; 7 days): > 10 µM

Repeated from above:
[Cl-].[Cl-].[Ru+2].c1ccc(-c2ccccn2)nc1.c1ccc(-c2ccccn2)nc1.c1ccc2cc3nc4c5cccnc5c5ncccc5c4nc3cc2c1
GI50 (cell growth, SRB; dark, 1% O2 hypoxia): 37.9 µM

Cc1cccc(-c2cccc(C)n2)n1.Cc1cccc(-c2cccc(C)n2)n1.F[P-](F)(F)(F)(F)F.F[P-](F)(F)(F)(F)F.[Ru+2].c1ccc(-c2nc3c4cccnc4c4ncccc4c3[nH]2)cc1
EC50 (cell growth or viability, resazurin; dark): 101 µM
